Assay results collected from several papers.
Each line is one published result; not all experiments were run side by side. ± gives the spread as reported.

`CSCC[C@H](NC(=O)[C@H](CC(C)C)NC(=O)[C@H](Cc1c[nH]cn1)NC(=O)CNC(=O)[C@@H](NC(=O)[C@H](C)NC(=O)[C@H](Cc1c[nH]c2ccccc12)NC(=O)[C@H](CCC(N)=O)NC(=O)CCCCCNC(=O)CNC(=O)CNC(=O)CNC(=O)CSC(C)=O)C(C)C)C(N)=O` [technetium-99m labelled] gave a tissue uptake of 0.13 ± 0.03 %ID/g (nude mouse, PC-3 xenograft, blood; 90 min, added: excess unlabelled conjugate).
`N=C(N)NCCC[C@@H]1NC(=O)[C@H](CCCCNC(=O)CC[C@H](NC(=O)CCOCCOCCOCCOCCNC(=O)CN2CCN(CC(=O)O)CCN(CC(=O)O)CCN(CC(=O)O)CC2)C(=O)NCCCC[C@@H]2NC(=O)[C@@H](Cc3ccccc3)NC(=O)[C@H](CC(=O)O)NC(=O)CNC(=O)[C@H](CCCNC(=N)N)NC2=O)NC(=O)[C@@H](Cc2ccccc2)NC(=O)[C@H](CC(=O)O)NC(=O)CNC1=O` [indium-111 labelled] — result for “tumour to tissue ratio”: 1.1 ± 0.21 (athymic nude mice, female, U-87 MG glioma xenograft, tumour and kidney; intravenous, 24 h; reference: tumour over kidney).
For `CCCC[C@H]1C(=O)NCC(=O)N[C@@H](CC(=O)O)C(=O)N[C@@H](C(C)C)C(=O)N(C)[C@@H](Cc2ccccc2)C(=O)N[C@@H](Cc2ccc(O)cc2)C(=O)N(C)CC(=O)N[C@@H](Cc2c[nH]c3ccccc23)C(=O)N[C@@H](Cc2ccc(O)cc2)C(=O)N[C@@H](CC(C)C)C(=O)N[C@H](C(=O)NCC(=O)N[C@@H](CCCCNC(=O)CN2CCN(CC(=O)O)CCN(CC(=O)O)CCN(CC(=O)O)CC2)C(N)=O)CSCC(=O)N[C@@H](Cc2ccccc2)C(=O)N(C)[C@@H](Cc2ccccc2)C(=O)N1C` [gallium-68 labelled], the protein-bound radioactivity was over 50% (human serum; concentration not given, 90 min, 37 °C).
The intact fraction of `N=C(N)NCCC[C@@H]1NC(=O)[C@H](CCCCn2cc(CNC(=O)CN3CCN(CC(=O)O)CCN(CC(=O)O)CCN(CC(=O)O)CC3)nn2)NC(=O)[C@@H](Cc2ccccc2)NC(=O)[C@H](CC(=O)O)NC(=O)CNC1=O` is reported as 76% (rat serum; 48 h, 37 °C, 64Cu-labeled).
`CCCC[C@H](NC(=O)CCCCCCCNC(=O)c1ccc(NN)nc1)C(=O)N[C@H]1CC(=O)NCCCC[C@@H](C(N)=O)NC(=O)[C@H](Cc2c[nH]c3ccccc23)NC(=O)[C@H](CCCNC(=N)N)NC(=O)[C@@H](Cc2ccccc2)NC(=O)[C@H](Cc2c[nH]cn2)NC1=O` [technetium-99m labelled] has an uptake of 0.12 ± 0.07 %ID/g (C57 mouse, B16/F1 melanoma, bone; intravenous, 24 h).
`N=C(N)NCCC[C@@H]1NC(=O)[C@H](CCCCNC(=O)CNC(=O)CNC(=O)CNC(=O)CC[C@H](NC(=O)c2ccc(NN=Cc3ccccc3S(=O)(=O)O)nc2)C(=O)NCC(=O)NCC(=O)NCC(=O)NCCCC[C@@H]2NC(=O)[C@@H](Cc3ccccc3)NC(=O)[C@H](CC(=O)O)NC(=O)CNC(=O)[C@H](CCCNC(=N)N)NC2=O)NC(=O)[C@@H](Cc2ccccc2)NC(=O)[C@H](CC(=O)O)NC(=O)CNC1=O` [technetium-99m labelled] has a tissue uptake of 0.3 ± 0.06 %ID/g (athymic nu/nu mouse, female, MDA-MB-435 xenograft, blood; intravenous, 120 min).
With `CCCC[C@H](NC(=O)CNC(=O)CNC(=O)CNC(=O)c1ccc(NN)nc1)C(=O)N[C@H]1CC(=O)NCCCC[C@@H](C(N)=O)NC(=O)[C@H](Cc2c[nH]c3ccccc23)NC(=O)[C@H](CCCNC(=N)N)NC(=O)[C@@H](Cc2ccccc2)NC(=O)[C@H](Cc2c[nH]cn2)NC1=O` [technetium-99m labelled] the uptake was 0.16 ± 0.09 %ID/g (C57 mouse, B16/F1 melanoma, spleen; intravenous, 2 h).
For `N=C(N)NCCC[C@@H]1NC(=O)[C@H](CCCCNC(=O)CCOCCOCCOCCOCCNC(=O)CN2CCN(CC(=O)O)CCN(CC(=O)O)CCN(CC(=O)O)CC2)NC(=O)[C@@H](Cc2ccccc2)NC(=O)[C@H](CC(=O)O)NC(=O)CNC1=O` [indium-111 labelled], “tumour to tissue ratio” read 2.06 ± 0.32 (athymic nude mice, female, U-87 MG glioma xenograft, tumour and heart; intravenous, 0.5 h; reference: tumour over heart).
Under “tissue uptake ratio”, `CCCC[C@H](NC(=O)CNC(=O)CNC(=O)c1ccc(NN)nc1)C(=O)N[C@H]1CC(=O)NCCCC[C@@H](C(N)=O)NC(=O)[C@H](Cc2c[nH]c3ccccc23)NC(=O)[C@H](CCCNC(=N)N)NC(=O)[C@@H](Cc2ccccc2)NC(=O)[C@H](Cc2c[nH]cn2)NC1=O` [technetium-99m labelled] is recorded as 12 (C57 mouse, B16/F1 melanoma-bearing; intravenous, 0.5 h; reference: tumour over liver).
The tissue uptake of `N=C(N)NCCC[C@@H]1NC(=O)[C@H](CCCCNC(=O)CCOCCOCCOCCOCCNC(=O)CC[C@H](NC(=O)CCOCCOCCOCCOCCNC(=O)CC[C@H](NC(=O)CN2CCN(CC(=O)O)CCN(CC(=O)O)CCN(CC(=O)O)CC2)C(=O)NCCOCCOCCOCCOCCC(=O)N[C@@H](CCC(=O)NCCOCCOCCOCCOCCC(=O)NCCCC[C@@H]2NC(=O)[C@@H](Cc3ccccc3)NC(=O)[C@H](CC(=O)O)NC(=O)CNC(=O)[C@H](CCCNC(=N)N)NC2=O)C(=O)NCCOCCOCCOCCOCCC(=O)NCCCC[C@@H]2NC(=O)[C@@H](Cc3ccccc3)NC(=O)[C@H](CC(=O)O)NC(=O)CNC(=O)[C@H](CCCNC(=N)N)NC2=O)C(=O)NCCOCCOCCOCCOCCC(=O)NCCCC[C@@H]2NC(=O)[C@@H](Cc3ccccc3)NC(=O)[C@H](CC(=O)O)NC(=O)CNC(=O)[C@H](CCCNC(=N)N)NC2=O)NC(=O)[C@@H](Cc2ccccc2)NC(=O)[C@H](CC(=O)O)NC(=O)CNC1=O` [indium-111 labelled] is reported as 7.21 ± 0.79 %ID/g (female athymic nude mice, kidney; intravenous, 3 µCi, 1 h, U-87 MG glioma xenograft).
`CN1/C(=C/C=C2\CCCC(/C=C/C3=[N+](C)c4ccccc4C3(C)C)=C2SCCC(=O)N[C@@H](Cc2ccccc2)C(=O)N[C@@H](Cc2ccccc2)C(=O)N[C@@H](CCCCNC(=O)CCC(=O)O)C(=O)N[C@@H](CCCCNC(=O)CCCC[C@@H]2SC[C@@H]3NC(=O)N[C@@H]32)C(=O)O)C(C)(C)c2ccccc21` — result for “time to plateau tumour signal”: 12 h (fluorescence imaging; BALB/c nude mice with 4T1 tumour; intravenous, 0.05 µmol/kg).
`CC(C)C[C@@H]1NC(=O)[C@H](C(C)C)NC(=O)[C@H](CO)NC(=O)CNC(=O)CNC(=O)[C@H](CCCNC(=N)N)NC(=O)[C@@H]2CCCN2C(=O)[C@@H](NC(=O)CC[C@H](NC(=O)c2ccc(N(C)Cc3cnc4nc(N)nc(N)c4n3)cc2)C(=O)O)C(C)(C)SSC[C@@H](C(=O)O)NC(=O)CNC(=O)[C@H]([C@@H](C)O)NC(=O)[C@H](C(C)C)NC1=O` has a half-life of 1.32 h (chemical stability; HCl solution; 100 µM, pH 1.0, 70 °C).
For `N=C(N)NCCC[C@@H]1NC(=O)[C@H](CCCCNC(=O)CC[C@H](NC(=O)CCOCCOCCOCCOCCNC(=O)CC[C@H](NC(=O)CN2CCN(CC(=O)O)CCN(CC(=O)O)CCN(CC(=O)O)CC2)C(=O)NCCOCCOCCOCCOCCC(=O)N[C@@H](CCC(=O)NCCCC[C@@H]2NC(=O)[C@@H](Cc3ccccc3)NC(=O)[C@H](CC(=O)O)NC(=O)CNC(=O)[C@H](CCCNC(=N)N)NC2=O)C(=O)NCCCC[C@@H]2NC(=O)[C@@H](Cc3ccccc3)NC(=O)[C@H](CC(=O)O)NC(=O)CNC(=O)[C@H](CCCNC(=N)N)NC2=O)C(=O)NCCCC[C@@H]2NC(=O)[C@@H](Cc3ccccc3)NC(=O)[C@H](CC(=O)O)NC(=O)CNC(=O)[C@H](CCCNC(=N)N)NC2=O)NC(=O)[C@@H](Cc2ccccc2)NC(=O)[C@H](CC(=O)O)NC(=O)CNC1=O` [indium-111 labelled], “tumour to tissue ratio” read 161 ± 100 (athymic nude mice, female, U-87 MG glioma xenograft, tumour and blood; intravenous, 4 h; reference: tumour over blood).

A few entries again:
`N=C(N)NCCC[C@@H]1NC(=O)[C@H](CCCCNC(=O)CNC(=O)CNC(=O)CNC(=O)CC[C@H](NC(=O)c2ccc(NN=Cc3ccccc3S(=O)(=O)O)nc2)C(=O)NCC(=O)NCC(=O)NCC(=O)NCCCC[C@@H]2NC(=O)[C@@H](Cc3ccccc3)NC(=O)[C@H](CC(=O)O)NC(=O)CNC(=O)[C@H](CCCNC(=N)N)NC2=O)NC(=O)[C@@H](Cc2ccccc2)NC(=O)[C@H](CC(=O)O)NC(=O)CNC1=O` [technetium-99m labelled] has a tissue uptake of 0.3 ± 0.06 %ID/g (athymic nu/nu mouse, female, MDA-MB-435 xenograft, blood; intravenous, 120 min).
With `CCCC[C@H](NC(=O)CNC(=O)CNC(=O)CNC(=O)c1ccc(NN)nc1)C(=O)N[C@H]1CC(=O)NCCCC[C@@H](C(N)=O)NC(=O)[C@H](Cc2c[nH]c3ccccc23)NC(=O)[C@H](CCCNC(=N)N)NC(=O)[C@@H](Cc2ccccc2)NC(=O)[C@H](Cc2c[nH]cn2)NC1=O` [technetium-99m labelled] the uptake was 0.16 ± 0.09 %ID/g (C57 mouse, B16/F1 melanoma, spleen; intravenous, 2 h).
